Published values from different studies.
Parts stem from different laboratories: compare values within a part only.

Study 1
Target: Prothrombin, mature alpha-thrombin (F2, Homo sapiens, UniProt P00734)
Technique: aptamer microarray, sandwich
Form: DNA with 2'F-ANA
Medium: in vitro
Concentration: 200 nM
Setting: whole 15-mer aptamer, many near background
Together with: Cy3 exosite-II aptamer, 400 nM
Reading: higher = stronger binding
Strand: GGTTGGTGTGGTTGG
Modification | mean fluorescence intensity [a.u.]
2'F-ANA at 1 2 5 6 8 10 11 14 15 | 54.4
2'F-ANA at 1 2 3 4 5 8 9 11 13 | 52.9
2'F-ANA at 3 4 6 8 10 12 13 14 15 | 174
2'F-ANA at 1 5 6 7 9 10 11 12 13 | 46.3
2'F-ANA at 2 8 10 13 14 15 | 78.8
2'F-ANA at 2 3 4 6 9 11 12 15 | 589
2'F-ANA at 1 2 3 5 10 13 | 55

Study 2
Target: Interferon regulatory factor 7, full length, phosphomimetic (IRF7, Homo sapiens, UniProt Q92985, residues 1-503, S471D/S472D/S475D/S476D/S477D/S483D/S484D/S487D)
Technique: protein-binding microarray
Form: double-stranded DNA, one strand shown
Medium: in vitro
Concentration: 2200 nM top
Setting: 60-bp whole probe
Together with: salmon DNA 0.4 mg/ml
Relative to: random background probes
Reading: higher = stronger binding
Residues (chain): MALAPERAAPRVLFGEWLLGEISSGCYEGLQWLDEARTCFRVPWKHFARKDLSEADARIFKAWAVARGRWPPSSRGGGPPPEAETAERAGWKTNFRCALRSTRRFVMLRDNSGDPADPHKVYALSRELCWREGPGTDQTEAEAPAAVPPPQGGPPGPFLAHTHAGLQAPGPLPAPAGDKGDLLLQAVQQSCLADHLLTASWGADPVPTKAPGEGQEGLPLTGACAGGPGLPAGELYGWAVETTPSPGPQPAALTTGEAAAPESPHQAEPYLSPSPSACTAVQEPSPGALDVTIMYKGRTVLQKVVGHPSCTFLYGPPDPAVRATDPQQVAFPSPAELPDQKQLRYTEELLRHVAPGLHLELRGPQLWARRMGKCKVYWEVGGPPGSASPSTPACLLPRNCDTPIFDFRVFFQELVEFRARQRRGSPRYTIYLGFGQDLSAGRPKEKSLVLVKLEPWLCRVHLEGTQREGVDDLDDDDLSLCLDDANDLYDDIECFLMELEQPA
Strand | fitted relative affinity [z-score]
GCCTAGCACGAGGAACTGGGGTTTCGAGACGTGCTAGTCTTGATTCGCTTGACGCTGCTG | 0.623
GCCTAGCACAGAAACTTGTGTTTGTCCCTGTGCTAGGTCTTGATTCGCTTGACGCTGCTG | 1.06
GCCTAGCACTATTATATCTGTGTTATTAAGTGCTAGGTCTTGATTCGCTTGACGCTGCTG | 0.848
GCCTAGCACGACGGTATTGACACTGGGGACGTGCTAGTCTTGATTCGCTTGACGCTGCTG | -0.127

Study 3
Target: RNA binding protein fox-1 homolog 2, RRM domain, GST-SBP tag (RBFOX2, Homo sapiens, UniProt O43251-10, residues 100-194)
Technique: RNA Bind-n-Seq
Form: RNA
Medium: in vitro
Concentration: 365 nM
Setting: natural RNA segment, single round, ends assumed
Relative to: no-protein control
Reading: higher = stronger binding
Target sequence (chain): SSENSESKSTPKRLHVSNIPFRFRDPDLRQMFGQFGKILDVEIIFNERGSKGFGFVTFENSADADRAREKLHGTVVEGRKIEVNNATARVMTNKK
Strand | RBNS enrichment (R)
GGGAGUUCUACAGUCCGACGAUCCAGUCCUCUGUAGUCCAGAGAGGUGAGAUUAGAUCUUCUUGGUUCCCUGUGAGGUUUCAGGCACUAAAACUCUAUGUGGGGAAGGGAGGGGUUACUCCUCCUCCAAUGGGUGGAAUUCUCGGGUGCCAA | 0.434
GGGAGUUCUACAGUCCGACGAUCGGGAAAAAACUAAAAAGGUUUUUUACAUUUUUAAAAGGAAGACAUUCGUGACUGAGACCAUACGUGGCCUAUAAACCUAGCAUUUGGAGAAAGUUUGCUGACUUUUGUAAUGGAAUUCUCGGGUGCCAA | 0.594
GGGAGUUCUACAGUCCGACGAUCCCCCCAAAGGUACUGAAAAGUCUCUGAUGCUCCUACUCCUGGAAAGAAGUCUGGGAAGCCCCUUUCGCUCUGCCUCCUGCAUCCUCCCAGAUAACAAAACACAUUAACACUGGAAUUCUCGGGUGCCAA | 0.677
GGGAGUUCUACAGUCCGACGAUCCCUUCCUGCUGCCCUAUCCUCUGCCUUAGAAGAAAUGGGAACAGCUUGUAGGGAAGGGACAAGCUGCAGAGGAACAGUGAUUUAAAGGCCCUUGGAGCUAGUCCCCUCAGUGGAAUUCUCGGGUGCCAA | 0.269
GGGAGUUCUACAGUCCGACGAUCCAGCUUUGUGGAGGGAGCCGCCGUGCUUCUGUCACCUGCUCCCUUUCUUGCGUCUCCCUGUGAUGGGCCCUUAGGCCUGGCUGGGCCCAUUACAUAUCCCUGUGGUGGCUUGGAAUUCUCGGGUGCCAA | 0.333

Other studies, line by line
Molecule | target | assay | test system | setting | how to read | endpoint | value
PhoQ, residues 284 288 289 292 302 303 AGGLSV | PhoP, residues 12 14 15 18 19 SQCLL (Escherichia coli, UniProt P23836) | Sort-seq, refers to: YFP reporter | E. coli | PhoQ-PhoP variant library, together with: 10 µM Mg2+ | relative to: high Mg2+ state, higher = stronger signaling | fold induction | 10.5
